Results of several laboratories.
Numbered parts are unrelated; each lists some results of a single study.
Sequence of UniProt P50613 (whole entry, looked up): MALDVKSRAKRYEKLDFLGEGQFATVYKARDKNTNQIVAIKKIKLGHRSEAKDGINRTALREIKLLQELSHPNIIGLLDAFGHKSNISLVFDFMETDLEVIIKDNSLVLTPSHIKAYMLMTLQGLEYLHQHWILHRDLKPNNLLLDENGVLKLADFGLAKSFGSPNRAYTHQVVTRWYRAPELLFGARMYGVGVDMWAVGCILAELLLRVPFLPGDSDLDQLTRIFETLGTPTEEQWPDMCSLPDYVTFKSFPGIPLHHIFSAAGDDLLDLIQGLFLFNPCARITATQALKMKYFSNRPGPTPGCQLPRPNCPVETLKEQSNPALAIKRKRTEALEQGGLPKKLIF
Sequence of UniProt O95747 (whole entry, looked up): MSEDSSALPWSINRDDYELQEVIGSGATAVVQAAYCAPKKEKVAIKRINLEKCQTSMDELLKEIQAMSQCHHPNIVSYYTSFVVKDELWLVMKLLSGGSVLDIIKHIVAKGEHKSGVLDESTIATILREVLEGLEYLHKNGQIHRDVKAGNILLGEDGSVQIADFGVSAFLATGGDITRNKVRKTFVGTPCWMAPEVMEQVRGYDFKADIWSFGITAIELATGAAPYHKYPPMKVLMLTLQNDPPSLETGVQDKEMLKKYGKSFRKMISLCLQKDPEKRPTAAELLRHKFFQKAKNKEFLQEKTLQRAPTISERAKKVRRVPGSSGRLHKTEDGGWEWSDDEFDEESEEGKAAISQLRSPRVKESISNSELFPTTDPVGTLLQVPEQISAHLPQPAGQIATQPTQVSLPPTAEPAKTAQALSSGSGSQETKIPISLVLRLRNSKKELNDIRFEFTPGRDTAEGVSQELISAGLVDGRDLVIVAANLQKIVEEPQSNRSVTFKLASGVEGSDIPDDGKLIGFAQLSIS
Sequence of UniProt P54753 (whole entry, looked up): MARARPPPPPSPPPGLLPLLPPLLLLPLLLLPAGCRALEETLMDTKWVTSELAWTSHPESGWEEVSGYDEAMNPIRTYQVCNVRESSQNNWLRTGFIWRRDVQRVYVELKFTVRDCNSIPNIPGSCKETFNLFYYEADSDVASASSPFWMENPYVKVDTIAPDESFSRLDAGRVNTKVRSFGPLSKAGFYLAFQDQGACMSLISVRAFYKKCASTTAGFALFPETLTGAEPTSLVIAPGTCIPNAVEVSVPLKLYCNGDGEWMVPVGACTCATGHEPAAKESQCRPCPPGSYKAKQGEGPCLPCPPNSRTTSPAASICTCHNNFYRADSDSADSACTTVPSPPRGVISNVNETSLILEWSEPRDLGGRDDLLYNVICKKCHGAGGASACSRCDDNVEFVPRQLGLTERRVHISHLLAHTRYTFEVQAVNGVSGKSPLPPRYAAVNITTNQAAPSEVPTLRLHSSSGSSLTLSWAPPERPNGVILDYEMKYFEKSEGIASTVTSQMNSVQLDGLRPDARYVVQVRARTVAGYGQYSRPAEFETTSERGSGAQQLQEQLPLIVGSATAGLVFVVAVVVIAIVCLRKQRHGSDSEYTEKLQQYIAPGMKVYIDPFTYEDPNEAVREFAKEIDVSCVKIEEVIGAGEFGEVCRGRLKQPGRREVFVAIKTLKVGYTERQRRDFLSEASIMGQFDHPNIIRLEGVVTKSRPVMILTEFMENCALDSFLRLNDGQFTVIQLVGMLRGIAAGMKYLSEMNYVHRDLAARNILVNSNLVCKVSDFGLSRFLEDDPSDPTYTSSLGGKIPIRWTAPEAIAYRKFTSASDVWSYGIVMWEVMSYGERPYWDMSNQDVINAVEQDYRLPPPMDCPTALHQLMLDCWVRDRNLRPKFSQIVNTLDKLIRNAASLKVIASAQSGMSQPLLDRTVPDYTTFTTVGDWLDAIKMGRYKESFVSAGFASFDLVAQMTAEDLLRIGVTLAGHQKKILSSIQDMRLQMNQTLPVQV
Sequence of UniProt O75676 (whole entry, looked up): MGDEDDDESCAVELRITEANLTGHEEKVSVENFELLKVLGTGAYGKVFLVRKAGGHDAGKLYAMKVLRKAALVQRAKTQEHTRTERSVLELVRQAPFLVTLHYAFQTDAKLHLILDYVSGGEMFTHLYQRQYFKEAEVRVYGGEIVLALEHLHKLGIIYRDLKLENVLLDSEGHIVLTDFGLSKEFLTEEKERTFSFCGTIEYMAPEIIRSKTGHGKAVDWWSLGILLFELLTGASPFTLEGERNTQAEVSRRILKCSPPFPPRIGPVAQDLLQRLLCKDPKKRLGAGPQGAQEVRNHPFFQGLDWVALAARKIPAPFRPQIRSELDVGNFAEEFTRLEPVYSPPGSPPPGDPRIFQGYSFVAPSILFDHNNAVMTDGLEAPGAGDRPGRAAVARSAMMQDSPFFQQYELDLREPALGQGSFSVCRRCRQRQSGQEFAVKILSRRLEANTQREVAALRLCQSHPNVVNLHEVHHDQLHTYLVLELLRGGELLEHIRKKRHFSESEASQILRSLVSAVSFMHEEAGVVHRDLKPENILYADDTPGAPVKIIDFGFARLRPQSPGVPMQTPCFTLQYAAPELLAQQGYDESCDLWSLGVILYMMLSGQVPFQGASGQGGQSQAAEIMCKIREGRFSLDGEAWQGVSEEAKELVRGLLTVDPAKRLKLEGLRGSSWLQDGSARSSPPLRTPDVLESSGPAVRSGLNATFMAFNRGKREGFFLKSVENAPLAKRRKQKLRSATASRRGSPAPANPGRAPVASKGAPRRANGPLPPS
Sequence of UniProt P41240 (whole entry, looked up): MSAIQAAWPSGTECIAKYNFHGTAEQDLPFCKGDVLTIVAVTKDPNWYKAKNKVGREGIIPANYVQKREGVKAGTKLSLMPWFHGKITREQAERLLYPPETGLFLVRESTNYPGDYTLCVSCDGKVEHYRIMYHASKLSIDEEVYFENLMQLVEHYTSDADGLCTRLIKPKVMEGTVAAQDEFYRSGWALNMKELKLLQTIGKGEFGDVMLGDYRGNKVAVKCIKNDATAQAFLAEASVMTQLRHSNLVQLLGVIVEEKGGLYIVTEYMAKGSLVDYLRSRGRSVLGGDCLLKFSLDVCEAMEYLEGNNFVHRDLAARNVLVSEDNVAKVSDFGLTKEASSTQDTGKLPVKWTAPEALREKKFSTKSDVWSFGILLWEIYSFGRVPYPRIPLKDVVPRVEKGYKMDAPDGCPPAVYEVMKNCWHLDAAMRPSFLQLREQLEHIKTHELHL
Sequence of UniProt Q92918 (whole entry, looked up): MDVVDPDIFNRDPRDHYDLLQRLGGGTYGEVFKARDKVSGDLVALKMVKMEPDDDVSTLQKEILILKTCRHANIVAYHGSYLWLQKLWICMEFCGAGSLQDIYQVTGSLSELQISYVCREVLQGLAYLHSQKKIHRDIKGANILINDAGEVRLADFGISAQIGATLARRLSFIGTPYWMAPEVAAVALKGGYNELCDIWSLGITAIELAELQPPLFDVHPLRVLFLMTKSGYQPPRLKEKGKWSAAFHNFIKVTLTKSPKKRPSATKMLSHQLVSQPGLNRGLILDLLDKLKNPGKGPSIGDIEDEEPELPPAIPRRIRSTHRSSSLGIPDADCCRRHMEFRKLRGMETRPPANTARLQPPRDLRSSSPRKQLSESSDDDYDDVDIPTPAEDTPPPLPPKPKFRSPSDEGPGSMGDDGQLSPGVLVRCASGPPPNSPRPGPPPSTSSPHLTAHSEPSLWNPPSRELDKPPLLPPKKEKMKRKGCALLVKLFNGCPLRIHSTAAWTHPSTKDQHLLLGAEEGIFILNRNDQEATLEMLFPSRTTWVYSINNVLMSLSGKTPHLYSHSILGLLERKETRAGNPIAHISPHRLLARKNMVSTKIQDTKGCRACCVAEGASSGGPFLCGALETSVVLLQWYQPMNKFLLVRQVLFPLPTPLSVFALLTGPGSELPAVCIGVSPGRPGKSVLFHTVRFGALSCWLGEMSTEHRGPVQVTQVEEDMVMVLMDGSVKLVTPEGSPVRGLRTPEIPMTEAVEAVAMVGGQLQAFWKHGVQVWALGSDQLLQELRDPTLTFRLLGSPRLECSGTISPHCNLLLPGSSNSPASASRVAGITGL

Study 1
Species: human
Matrix: microsomes or S9
Tested at: 2 µM
Time: 0.5 h
| Structure (SMILES) | remaining compound |
| --- | --- |
| CCN(CC)S(=O)(=O)c1ccc(NC(=O)C(C)N(c2ccc(C)c(C)c2)S(C)(=O)=O)cc1 (stereo not drawn) | 79.4% |
| O=c1c(O)c(-c2ccccc2)oc2cc(O)ccc12 | 2.34% |
| Cn1c(=O)c2[nH]c(N3CCN(c4cccc(O)c4)CC3)nc2n(C)c1=O | 65.2% |
| COc1cc(=O)n2c(c1C(=O)NCc1ccccc1Cl)CCCC2 | 40.7% |
| O=C(NC1CCN(Cc2ccc(OC3CCNCC3)c(Br)c2)CC1)c1cc2cc(F)ccc2n1S(=O)(=O)c1ccccc1 | 59.2% |
| O=C(c1csc(-c2ccsc2)n1)N(Cc1ncc[nH]1)c1cccc(F)c1 | 4.98% |
| CN(C)c1ccc(C(O)CF)c(S(N)(=O)=O)n1 (stereo not drawn) | 96.7% |
| O=c1[nH]cnc2c1nnn2Cc1cc(F)cc(F)c1 | 89.1% |
| Cc1ccc2nc3c(cc(C(=O)NCCCn4ccnc4)n3C)c(=O)n2c1 | 74.9% |
| Cc1nc(NCC(C(C)C)N(C)C)c2nc(C)oc2n1 (stereo not drawn) | 96% |
| CN1CCN(c2ccc(C(=O)Nc3c[nH]c4ncnc(-c5cnn(C6CCN(C(=O)OC(C)(C)C)CC6)c5)c34)cc2)CC1 | > 100% |
| Cc1ccc(C(=O)C2=CN(c3cc(Cl)cc(Cl)c3)c3cc(F)ccc3S2(=O)=O)c(C)c1 | 2.05% |
| CC(=O)Nc1ccc(C(=O)N(Cc2cccnc2)C2(C(=O)NCc3ccccc3)CCN(C(C)=O)CC2)cc1 | 74.7% |

Study 2
SMILES: COc1cc(-c2cn(C3CCc4ccccc4N(CC(F)(F)F)C3=O)nn2)ccc1-n1ccc(C)n1 (stereo not drawn)
Observed: cell-free assay
Technique: competition with immobilised ligand
Tested at: 1 µM
| target | remaining binding [%] |
| --- | --- |
| PRPF4B (Homo sapiens, UniProt Q13523) | 93 |
| PIK3CA (Homo sapiens, UniProt P42336, H1047L) | 97 |
| FLT3 (Homo sapiens, UniProt P36888, R834Q) | 100 |
| MAPK6 (Homo sapiens, UniProt Q16659) | 100 |
| CDC42BPA (Homo sapiens, UniProt Q5VT25) | 100 |
| EPHB3 (Homo sapiens, UniProt P54753) | 100 |
| EGFR (Homo sapiens, UniProt P00533, G719C) | 100 |
| CDK7 (Homo sapiens, UniProt P50613) | 87 |
| PRKACB (Homo sapiens, UniProt P22694) | 81 |
| MATK (Homo sapiens, UniProt P42679) | 80 |

Study 3
Structure (SMILES): CC(C)S(=O)(=O)c1ccc2nccc(Nc3ccc4sc(C5CCCC5)nc4c3)c2c1.Cl
Observed: kinase activity
Action: inhibitor
Tested at: 1 µM
| target | remaining activity [%] |
| --- | --- |
| DYRK1A (Homo sapiens, UniProt Q13627) | 96 |
| PASK (Homo sapiens, UniProt Q96RG2) | 110 |
| STK17B (Homo sapiens, UniProt O94768) | 95 |
| LATS2 (Homo sapiens, UniProt Q9NRM7) | 109 |
| CSK (Homo sapiens, UniProt P41240) | 74 |
| MAP4K1 (Homo sapiens, UniProt Q92918) | 99 |
| OXSR1 (Homo sapiens, UniProt O95747) | 104 |
| RPS6KA4 (Homo sapiens, UniProt O75676) | 90 |
| SIK2 (Homo sapiens, UniProt Q9H0K1) | 103 |

Study 4
Target: Serine/threonine-protein kinase D2 (PRKD2, Homo sapiens, UniProt Q9BZL6)
Sequence of UniProt Q9BZL6 (whole entry, looked up): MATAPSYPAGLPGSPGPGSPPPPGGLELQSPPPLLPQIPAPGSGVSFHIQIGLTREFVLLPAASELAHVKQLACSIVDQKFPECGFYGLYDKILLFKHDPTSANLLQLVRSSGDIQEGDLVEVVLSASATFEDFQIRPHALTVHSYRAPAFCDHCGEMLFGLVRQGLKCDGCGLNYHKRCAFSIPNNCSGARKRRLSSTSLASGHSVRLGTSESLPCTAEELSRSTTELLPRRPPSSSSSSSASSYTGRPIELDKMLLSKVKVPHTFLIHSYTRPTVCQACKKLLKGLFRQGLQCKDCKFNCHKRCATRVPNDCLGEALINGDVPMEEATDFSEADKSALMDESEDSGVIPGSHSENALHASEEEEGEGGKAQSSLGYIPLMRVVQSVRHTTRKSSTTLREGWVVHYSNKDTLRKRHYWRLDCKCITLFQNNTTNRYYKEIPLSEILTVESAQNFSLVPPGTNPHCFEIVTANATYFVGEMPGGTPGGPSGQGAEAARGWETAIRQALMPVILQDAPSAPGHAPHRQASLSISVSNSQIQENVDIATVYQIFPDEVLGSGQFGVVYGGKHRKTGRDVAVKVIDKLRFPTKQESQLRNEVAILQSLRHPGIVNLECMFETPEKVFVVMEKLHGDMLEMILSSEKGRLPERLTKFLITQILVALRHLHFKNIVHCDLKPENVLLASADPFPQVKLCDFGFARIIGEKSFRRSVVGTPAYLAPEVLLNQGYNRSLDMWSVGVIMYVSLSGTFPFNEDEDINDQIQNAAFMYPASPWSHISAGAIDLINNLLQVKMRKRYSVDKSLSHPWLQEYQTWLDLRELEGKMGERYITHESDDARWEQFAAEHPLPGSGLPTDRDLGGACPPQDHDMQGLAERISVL
Observed: enzyme activity
Action: inhibitor
Tested at: 0.5 µM
Baseline: control
| Structure (SMILES) | remaining activity [%] |
| --- | --- |
| OCC(O)CCON=C1C(c2c(O)[nH]c3ccccc23)=Nc2ccccc21 (stereo not drawn) | 74.3 |
| Oc1ccc(-c2nc(-c3ccncc3)c(-c3ccc(F)cc3)[nH]2)cc1 | 79.9 |
| Cc1nc(-c2ccccc2)c(-c2ccncc2)o1 | 97.7 |
| Nc1ccc2ncnc(NCCc3ccc(Oc4ccccc4)cc3)c2c1 | 98.2 |
| Cc1ccc(NC(=O)c2ccc(CN3CCN(C)CC3)cc2)cc1Nc1nc(-c2cccnc2)cs1 | 98.2 |
| CO[C@H]1C[C@@H]2CC[C@@H](C)[C@@](O)(O2)C(=O)C(=O)N2CCCC[C@H]2C(=O)O[C@H]([C@H](C)C[C@@H]2CC[C@@H](O)[C@H](OC)C2)CC(=O)[C@H](C)/C=C(\C)[C@@H](O)[C@@H](OC)C(=O)[C@H](C)C[C@H](C)/C=C/C=C/C=C/1C | 99 |
| CN(C)c1ccc(C=C2C(=O)Nc3ccccc32)cc1 | 95.2 |
| O=C(CCCc1ccc(-c2ccccc2F)cc1)Nc1ccc(O)cc1 | 97.6 |
| COc1cc2ncnc(Nc3ccc(Oc4ccccc4)cc3)c2cc1OC | 100 |
| COc1ccc(OC)c2c(=S)c3ccccc3[nH]c12 | 88.1 |
| C#Cc1cccc(Nc2ncnc3cc(OCCOC)c(OCCOC)cc23)c1 | 85.9 |
| NCCNc1ncc(C(N)=O)c(Nc2cccc(C(F)(F)F)c2)n1 | 33 |
| COc1cc2nccc(Oc3ccc(NC(=S)NC(=O)c4ccccc4C)cc3)c2cc1OC | 86.8 |
| Nc1ncnc2n[nH]c(Nc3ccc(F)cc3)c12 | 81.3 |
| Cn1sc(=O)n(Cc2ccccc2)c1=O | 95.1 |
| COc1ccc(C(=O)Nc2sc3c(c2C(N)=O)CCCC3)cc1OC | 99.4 |

A few entries again (study 1):
| Structure (SMILES) | remaining compound |
| --- | --- |
| O=c1c(O)c(-c2ccccc2)oc2cc(O)ccc12 | 2.34% |
| Cc1ccc(C(=O)C2=CN(c3cc(Cl)cc(Cl)c3)c3cc(F)ccc3S2(=O)=O)c(C)c1 | 2.05% |
| O=c1[nH]cnc2c1nnn2Cc1cc(F)cc(F)c1 | 89.1% |
| O=C(NC1CCN(Cc2ccc(OC3CCNCC3)c(Br)c2)CC1)c1cc2cc(F)ccc2n1S(=O)(=O)c1ccccc1 | 59.2% |
| CN(C)c1ccc(C(O)CF)c(S(N)(=O)=O)n1 (stereo not drawn) | 96.7% |
| Cc1nc(NCC(C(C)C)N(C)C)c2nc(C)oc2n1 (stereo not drawn) | 96% |
